Measured values pooled from the literature.
Lines come from different studies, so protocols differ. Values after ≈ are worked out from the molar mass of the structure shown.
Sequence of UniProt O00329 (whole entry, looked up): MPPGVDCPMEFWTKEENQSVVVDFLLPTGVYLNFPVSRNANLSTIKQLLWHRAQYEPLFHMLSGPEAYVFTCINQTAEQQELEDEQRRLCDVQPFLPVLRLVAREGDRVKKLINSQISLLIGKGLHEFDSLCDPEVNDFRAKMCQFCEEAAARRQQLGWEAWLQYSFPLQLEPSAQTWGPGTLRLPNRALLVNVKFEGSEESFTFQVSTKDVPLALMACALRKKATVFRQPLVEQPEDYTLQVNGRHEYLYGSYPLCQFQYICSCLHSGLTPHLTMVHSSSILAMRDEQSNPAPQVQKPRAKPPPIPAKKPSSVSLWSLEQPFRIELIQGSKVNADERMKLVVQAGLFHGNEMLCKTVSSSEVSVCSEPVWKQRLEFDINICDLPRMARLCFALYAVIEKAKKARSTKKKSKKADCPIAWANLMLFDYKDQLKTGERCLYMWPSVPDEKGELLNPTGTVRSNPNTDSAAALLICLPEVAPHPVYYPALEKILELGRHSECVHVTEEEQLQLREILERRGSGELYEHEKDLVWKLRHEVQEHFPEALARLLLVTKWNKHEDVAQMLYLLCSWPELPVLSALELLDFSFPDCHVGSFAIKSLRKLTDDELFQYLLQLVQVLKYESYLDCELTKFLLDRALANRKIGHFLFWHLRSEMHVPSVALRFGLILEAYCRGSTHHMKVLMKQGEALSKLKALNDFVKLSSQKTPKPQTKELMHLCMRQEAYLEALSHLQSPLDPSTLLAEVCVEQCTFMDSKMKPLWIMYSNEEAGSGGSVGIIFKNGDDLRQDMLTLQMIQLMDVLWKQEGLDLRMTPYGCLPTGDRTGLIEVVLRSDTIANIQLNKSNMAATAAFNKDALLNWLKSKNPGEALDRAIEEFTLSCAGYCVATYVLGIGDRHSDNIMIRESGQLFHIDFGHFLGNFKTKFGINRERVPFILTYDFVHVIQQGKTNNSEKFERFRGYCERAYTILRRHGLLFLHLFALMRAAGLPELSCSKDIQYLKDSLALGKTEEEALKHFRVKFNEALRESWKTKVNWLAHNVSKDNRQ
Sequence of UniProt Q16566 (whole entry, looked up): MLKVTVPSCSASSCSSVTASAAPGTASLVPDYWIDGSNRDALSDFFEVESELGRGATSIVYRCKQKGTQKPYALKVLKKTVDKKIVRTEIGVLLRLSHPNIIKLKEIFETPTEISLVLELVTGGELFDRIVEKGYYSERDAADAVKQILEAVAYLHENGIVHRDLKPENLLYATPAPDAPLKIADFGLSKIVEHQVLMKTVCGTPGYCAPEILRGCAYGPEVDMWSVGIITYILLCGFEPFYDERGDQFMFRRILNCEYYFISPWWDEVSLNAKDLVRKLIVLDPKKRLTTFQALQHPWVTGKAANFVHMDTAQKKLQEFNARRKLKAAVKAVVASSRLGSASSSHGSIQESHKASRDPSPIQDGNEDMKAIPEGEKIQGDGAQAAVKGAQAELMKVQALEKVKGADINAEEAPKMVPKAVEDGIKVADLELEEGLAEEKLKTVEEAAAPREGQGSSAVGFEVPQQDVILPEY

For `CCCC[C@@H]1NC(=O)[C@H](Cc2ccc(O)cc2)NC(=O)[C@@H]2CCCN2C(=O)[C@H](CC(=O)O)NC(=O)[C@H](C)NC(=O)[C@H](Cc2ccccc2)NC(=O)[C@@H]2CSCCC(=O)N3CN(CN(C3)C(=O)CCSC[C@H](NC(C)=O)C(=O)N[C@@H](CC(C)(C)C)C(=O)N[C@@H](CCC(=O)O)C(=O)N[C@@H](CCC(=O)O)C(=O)N[C@H](CCCCNC(=O)CCc3cn(CCOCCOCCOCCOCCOCCC(=O)N[C@H]4CSCCC(=O)N5CN6CN(C5)C(=O)CCSC[C@H](NC(=O)[C@@H](CC(=O)O)NC(=O)[C@H](Cc5cccc7ccccc57)NC(=O)[C@@H]5CCCN5C4=O)C(=O)N[C@@H](CCSC)C(=O)N[C@@H](CCCCNC(=N)N)C(=O)N[C@@H](CC(=O)O)C(=O)N[C@@H](Cc4c[nH]c5ccccc45)C(=O)N[C@@H](CO)C(=O)N[C@@H]([C@@H](C)O)C(=O)N4CCC[C@H]4C(=O)N4C[C@H](O)C[C@H]4C(=O)N[C@@H](Cc4c[nH]c5ccccc45)C(=O)N[C@H](C(N)=O)CSCCC6=O)nn3)C(=O)N3CCC[C@H]3C(=O)N[C@@H](Cc3ccc(O)cc3)C(=O)N2)C(=O)CCSC[C@@H](C(N)=O)NC1=O`, the Vd was 0.86 L/kg (rat, plasma; intravenous, 2 mg/kg).
For `CC(C)CC(=O)OC[C@H]1O[C@@](C#N)(c2ccc3c(N)ncnn23)[C@H](O)[C@@H]1O`, the half-life was 0.00535 h (metabolic stability; mouse, plasma; 5 µM).
With `Cl.Cn1c(=O)n(CCCCN2CCC3(CC2)OCc2ccccc23)c2ccccc21` the clearance was 21.7 mL/min/kg (male Sprague-Dawley rat, plasma; intravenous, 5 mg/kg).
`N=c1c2c(-c3ccccc3)c(-c3ccccc3)n(Cc3ccccc3)c2ncn1[C@H]1CC[C@H](O)CC1` gave a half-life of 146 h (male beagle dog, plasma; oral, 1 mg/kg, single dose).
`CC[C@H](C)[C@H]1C(=O)N[C@@H]([C@@H](C)O)C(=O)NCC(=O)NCC(=O)N[C@@H](C)C(=O)N[C@@H](CC(C)C)C(=O)N[C@@H](C(C)C)C(=O)N[C@@H](CC(C)C)C(=O)N2CCC[C@@H]2C(=O)N[C@H](Cc2ccc(O)cc2)C(=O)N[C@H](CC(C)C)C(=O)N1C` has a solubility of 479 µM (≈ 532 µg/mL) (aqueous buffer; 18 h, pH 7.4).
For `[2H]c1c([2H])c([C@]2([2H])CCCN2C(=O)C(C)(C)Oc2ccc3cn[nH]c3c2)c([2H])c([2H])c1C([2H])([2H])[2H]`, the remaining binding was 79% (CAMK4 (Homo sapiens, UniProt Q16566); binding, competition with immobilised ligand; 1 µM).
`CCC[C@@](N)(CO)CCc1ccc(OCCCCCC(C)C)cc1` has a half-life of roughly 19.5 h (dog, plasma; intravenous, 1 mg/kg).
`CC(C)C[C@H](NC(=O)[C@H](Cc1ccccc1)NC(=O)[C@H](Cc1ccccc1)NC(=O)Cc1ccc(-c2ccccc2)cc1)C(=O)N[C@@H](CCCCN)C(=O)N[C@@H](CCCNC(=N)N)C(=O)N[C@H](C(=O)N[C@@H](Cc1c[nH]c2ccccc12)C(=O)N[C@@H](CCCCN)C(=O)N[C@@H](CCCNC(=N)N)C(=O)O)C(C)C` gave a compound remaining of 9.02% (metabolic stability; monkey, liver microsomes; 45 min).
`CC(C)C[C@H]1C(=O)N[C@@H](C(C)C)C(=O)N[C@@H](Cc2ccccc2)C(=O)N[C@H](CC(=O)O)C(=O)N2CCC[C@@H]2C(=O)N[C@H](CCC(=O)O)C(=O)N[C@H](C(=O)O)CSSC[C@@H](N)C(=O)N[C@@H](CCC(=O)O)C(=O)N2CCC[C@H]2C(=O)N1C` gave a solubility of 617 µM (≈ 717 µg/mL) (aqueous buffer; 18 h, pH 7.4).
For `COc1ncccc1-c1cnn2ccc(N3CCN(C(=O)OC(C)C)CC3)nc12`, the remaining binding was 68% (PIK3CD (Homo sapiens, UniProt O00329); binding, competition with immobilised ligand; 1 µM).
`CC[C@H](C)[C@@H]1NC(=O)[C@H]2CCCN2C(=O)[C@@H](CC(C)C)NC(=O)CNC(=O)[C@H]2CCCN2C(=O)[C@@H](Cc2ccc(O)cc2)NC(=O)CNC(=O)[C@H](CO)NC(=O)[C@H](C(C)C)NC(=O)[C@H](CC(C)C)NC1=O` gave a solubility of 912 µM (≈ 909 µg/mL) (aqueous buffer; 18 h, pH 7.4).
The Vd of `CC[C@H](C)[C@H](NC(=O)[C@H](Cc1ccccc1)NC(=O)[C@H](CCC(=O)O)NC(=O)[C@H](CCCCN)NC(=O)[C@H](C)NC(=O)[C@H](C)NC(=O)[C@H](CCC(N)=O)NC(=O)CNC(=O)[C@H](CCC(=O)O)NC(=O)[C@H](CC(C)C)NC(=O)[C@H](Cc1ccc(O)cc1)NC(=O)[C@H](CO)NC(=O)[C@H](CO)NC(=O)[C@@H](NC(=O)[C@H](CC(=O)O)NC(=O)[C@H](CO)NC(=O)[C@@H](NC(=O)[C@H](Cc1ccccc1)NC(=O)[C@@H](NC(=O)CNC(=O)[C@H](CCC(=O)O)NC(=O)[C@H](C)NC(=O)N(N)Cc1c[nH]cn1)[C@@H](C)O)[C@@H](C)O)C(C)C)C(=O)N[C@@H](C)C(=O)N[C@@H](Cc1c[nH]c2ccccc12)C(=O)N[C@@H](CC(C)C)C(=O)N[C@H](C(=O)N[C@@H](CCCNC(=N)N)C(=O)NCC(=O)N[C@@H](CCCNC(=N)N)C(=O)NCC(=O)O)C(C)C` is reported as 0.06 L/kg (male CD-1 mouse, plasma; intravenous, 1 mg/kg, single dose).

Excerpt of the above:
For `CC(C)CC(=O)OC[C@H]1O[C@@](C#N)(c2ccc3c(N)ncnn23)[C@H](O)[C@@H]1O`, the half-life was 0.00535 h (metabolic stability; mouse, plasma; 5 µM).
